Values quoted from earlier work as cited in several papers.
Values joined by “and” are separate records of one study, mostly repeats; a detail may differ. Numbers after ± are the reported error. Values after ≈ are worked out from the molar mass of the structure shown.

COc1ccc(C(=O)Nc2ccccc2CCC2CCCCN2C)cc1 (centres unmarked)
Cmax (human, plasma; concentration not given, range of reported values): 0.684 to 2.83 µM

CC(C)(c1ccc(O)cc1)c1ccc(O)cc1
dose-normalized AUC (CD-1 mouse, female; 100 mg/kg): 29.8 (nmol·h/mL)/(mmol/kg)

CCCCCOc1ccc(-c2cc(-c3ccc(C(=O)N[C@H]4C[C@@H](O)[C@@H](O)NC(=O)[C@@H]5[C@@H](O)[C@@H](C)CN5C(=O)[C@H]([C@H](O)CC(N)=O)NC(=O)[C@H]([C@H](O)[C@@H](O)c5ccc(O)c(OS(=O)(=O)O)c5)NC(=O)[C@@H]5C[C@@H](O)CN5C(=O)[C@H]([C@@H](C)O)NC4=O)cc3)no2)cc1
fraction excreted in urine (human; added: radiolabelled compound): 12%

FC(F)(F)c1ccc2c(c1)[C@@H]1CNC[C@H]2C1
unbound brain-to-plasma ratio (rat; AUC(0-24) based): 0.41

CN(C)CCCC1(c2ccc(F)cc2)OCc2cc(C#N)ccc21 (centres unmarked)
fraction unbound (dog): 0.057

CC(C)(C)[C@H](NC(=O)C(F)(F)F)C(=O)N1C[C@H]2[C@@H]([C@H]1C(=O)N[C@H](C#N)C[C@@H]1CCNC1=O)C2(C)C
fraction unbound (human, plasma): 0.31

c1ccc2c(c1)ccc1c3ccccc3ccc21
bioconcentration factor (fish; dose not given, experimental mean): 2080 L/kg

Cc1cccc(C)c1N(Cn1cccn1)C(=O)CCl
log Kow: 2.13

CN1Cc2c(N)cccc2C(c2ccccc2)C1 (centres unmarked)
fraction unbound (dog): 0.072

O=C(O)C(F)(F)C(F)(F)C(F)(F)C(F)(F)C(F)(F)C(F)(F)C(F)(F)F
pKa (surface tension; literature value): 2.2

Cc1ccc2cc(C)ccc2c1
amount in tissue (zebrafish embryos, whole embryo; 390.55 ng/well, 48 hpf, single exposure): 2.26 ng/well and 2.21 ng/well and 2.25 ng/well

CC(C)(C)NCC(O)COc1ccc(NC(=O)NC2CCCCC2)cc1 (centres unmarked)
fraction unbound (mouse): 0.117

CCCCCOc1ccc(-c2ccc(-c3ccc(C(=O)N[C@H]4C[C@@H](O)[C@@H](O)NC(=O)[C@@H]5[C@@H](O)[C@@H](C)CN5C(=O)[C@H]([C@@H](C)O)NC(=O)[C@H]([C@H](O)[C@@H](O)c5ccc(O)cc5)NC(=O)[C@@H]5C[C@@H](O)CN5C(=O)[C@H]([C@@H](C)O)NC4=O)cc3)cc2)cc1
central volume of distribution (human, general patient population; dose not given, sample A kg patient, typical value): 11.9 L

CCN(CC)CCCC(C)Nc1ccnc2cc(Cl)ccc12 (centres unmarked)
blood-to-plasma ratio (human): 5

O=C(CCCN1CCC(O)(c2ccc(Cl)cc2)CC1)c1ccc(F)cc1
fraction unbound (mouse): 0.003

C[C@H](c1ccccc1)n1cncc1C(=O)OCCC(=O)O
concentration (rat, cerebrospinal fluid; MOC-etomidate infusion): 2500 ± 110 µM

Nc1ccncc1
free Cmax (plasma; literature data): 0.23 µM

Cc1cccc2c1ccc1cc(C(C)C)ccc12
Km (metabolism, substrate; human liver microsomes): 2 nM

Clc1cc2c(cc1Cl)Oc1cc(Cl)c(Cl)cc1O2
half-life (human): 7.2 to 8.7 years

c1ccc2c(c1)-c1cccc3c1c-2cc1ccccc13
amount in tissue (zebrafish embryos, whole embryo; 135.99 ng/well, 48 hpf, single exposure): 1.19 ng/well and 0.624 ng/well and 0.651 ng/well

COC(=O)[C@H]1[C@@H](c2ccc(C)cc2)C[C@@H]2CC[C@H]1N2C/C=C/C[18F]
tissue concentration (PET; rat, striatum; dose not given, 24 min): 1.01 MBq/cc and 0.765 MBq/cc and 0.826 MBq/cc and 0.932 MBq/cc and 0.944 MBq/cc

c1ccc2c(c1)cc1ccc3cccc4ccc2c1c34
amount in tissue (zebrafish embryos, whole embryo; 292.7 ng/well, 48 hpf, single exposure): 0.43 ng/well and 0.282 ng/well and 0.424 ng/well and 0.261 ng/well

CC(F)(F)c1cc(F)ccc1-c1sc2cc(O)ccc2c1Oc1ccc(/C=C/C(=O)O)cc1
highest non-severely toxic dose (dog; 4 weeks): 100 mg/kg/day

O=C1CCc2ccc(OCCCCN3CCN(c4cccc(Cl)c4Cl)CC3)cc2N1
fraction unbound (mouse): 0.001

C[C@@H](O)[C@@H]1NC(=O)[C@H](CCCCN)NC(=O)[C@@H](Cc2c[nH]c3ccccc23)NC(=O)[C@H](Cc2ccccc2)NC(=O)[C@@H](NC(=O)[C@H](N)Cc2ccccc2)CSSC[C@@H](C(=O)N[C@H](CO)[C@@H](C)O)NC1=O
volume of distribution (healthy volunteers; dose not given): 18 to 30 L

CC(NCCc1ccc(O)cc1)C(O)c1ccc(O)cc1 (centres unmarked)
Cmax (human, plasma; concentration not given, median of reported values): 0.04 µM

NC1CCCCC1N.O=C([O-])C(=O)[O-].[Pt+2] (centres unmarked)
AUC (item: total platinum; mouse, plasma; intraperitoneal, 5 mg Pt/kg): 23200 ng·h/mL

Cc1cc(N(CCOS(C)(=O)=O)CCOS(C)(=O)=O)ccc1C=O
plasma protein binding (human plasma): 74 to 85%

CC(C)(C)NC(=O)[C@@H](N)Cc1ccc(OP2(=O)CO[C@@H](Cn3ccc(N)nc3=O)CO2)cc1 (some centres unmarked)
half-life (PBS; pH 6.5, Rp isomer): 1.2 days

CN1[C@@H]2CC[C@H]1C[C@@H](OC(=O)c1c[nH]c3ccccc13)C2
fraction unbound (mouse): 0.059

Cc1cccc2c1ccc1cc(C(C)C)ccc12
amount in tissue (zebrafish embryos, whole embryo; 271.8 ng/well, 48 hpf, single exposure): 7.11 ng/well and 6.11 ng/well and 5.09 ng/well

Nc1ccc2c(c1)CN1C(=O)c3ccccc3C1=N2
maximum tolerated dose ratio (rat and dog; oral; baseline: rat over dog): 60

c1cc2ccc3cccc4ccc(c1)c2c34
amount in tissue (zebrafish embryos, whole embryo; 234.61 ng/well, 48 hpf, single exposure): 37.5 ng/well and 40.4 ng/well and 50.6 ng/well

CNC(=O)Oc1cc(C)c(SC)c(C)c1
log Kow: 2.92

O=S(=O)(O)C(F)(F)C(F)(F)C(F)(F)C(F)(F)C(F)(F)C(F)(F)F
half-life (mouse, male): 28 days

CCN(CCO)CCCC(C)Nc1ccnc2cc(Cl)ccc12 (centres unmarked)
lung concentration (hamster; intraperitoneal, 50 mg/kg): 93 µmol/kg

O=S(=O)(O)C(F)(F)C(F)(F)C(F)(F)C(F)(F)F
pKa (literature value; vapour phase): < 0.3

c1ccc2c(c1)cc1ccc3cccc4c5ccccc5c2c1c34
amount in tissue (zebrafish embryos, whole embryo; 756 ng/well, 48 hpf, single exposure): 0.451 ng/well and 0.3 ng/well and 0.394 ng/well

ClC(Cl)=C(c1ccc(Cl)cc1)c1ccc(Cl)cc1
water solubility (25 °C): 0.12 µg/mL (≈ 0.377 µM)

CCCc1nc2c(C)cc(-c3nc4ccccc4n3C)cc2n1Cc1ccc(-c2ccccc2C(=O)O)cc1
fraction unbound (dog): 0.011

CC(=O)C[C@@H](c1ccccc1)c1c(O)c2ccccc2oc1=O
Cmax, mean (human, fasted; oral, 12.5 mg, single dose, added: racemic warfarin 25 mg): 1740 ng/mL

O=S(=O)(O)C(F)(F)C(F)(F)C(F)(F)C(F)(F)F
plasma fraction unbound (plasma): 0.0128

COC(=O)C1=C(C)NC(C)=C(C(=O)OCCN(C)Cc2ccccc2)C1c1cccc([N+](=O)[O-])c1 (centres unmarked)
fraction unbound (mouse): 0.004

O=C(CCCCC1SCC2NC(=O)NC21)Nc1cccc([211At])c1 (centres unmarked)
intact compound remaining (human serum; 24 h): 64%

O=C(O)C(F)(F)C(F)(F)C(F)(F)C(F)(F)C(F)(F)C(F)(F)C(F)(F)C(F)(F)C(F)(F)C(F)(F)F
plasma fraction unbound (plasma): 0.0116

COc1ccc2cc1Oc1ccc(cc1)C[C@H]1c3cc(c(OC)cc3CCN1C)Oc1c(OC)c(OC)cc3c1[C@H](C2)N(C)CC3
blood-to-plasma ratio (human): 2.33

O=S(=O)(O)C(F)(F)C(F)(F)C(F)(F)C(F)(F)C(F)(F)C(F)(F)F
plasma fraction unbound (plasma): 0.0009

CC(C)CNC(=O)[C@@H](N)Cc1ccc(OP2(=O)CO[C@@H](Cn3cnc4c(N)ncnc43)CO2)cc1 (some centres unmarked)
oral bioavailability (mouse; oral): 39%

O=C(O)C(F)(F)C(F)(F)C(F)(F)C(F)(F)C(F)(F)C(F)(F)C(F)(F)C(F)(F)C(F)(F)F
plasma fraction unbound (plasma): 0.0027

COc1ccc(C[C@@H](C)[C@@H](C)Cc2ccc(OC)c(OC)c2)cc1OC
LD50 (rat; intravenous): 980 mg/kg
